Measurements of several laboratories.
Each numbered part is a random draw from the data of one study; scales do not carry over between parts. Changes are numbered by the printed parent chain.
UniProt P93022, sequence (whole entry, looked up): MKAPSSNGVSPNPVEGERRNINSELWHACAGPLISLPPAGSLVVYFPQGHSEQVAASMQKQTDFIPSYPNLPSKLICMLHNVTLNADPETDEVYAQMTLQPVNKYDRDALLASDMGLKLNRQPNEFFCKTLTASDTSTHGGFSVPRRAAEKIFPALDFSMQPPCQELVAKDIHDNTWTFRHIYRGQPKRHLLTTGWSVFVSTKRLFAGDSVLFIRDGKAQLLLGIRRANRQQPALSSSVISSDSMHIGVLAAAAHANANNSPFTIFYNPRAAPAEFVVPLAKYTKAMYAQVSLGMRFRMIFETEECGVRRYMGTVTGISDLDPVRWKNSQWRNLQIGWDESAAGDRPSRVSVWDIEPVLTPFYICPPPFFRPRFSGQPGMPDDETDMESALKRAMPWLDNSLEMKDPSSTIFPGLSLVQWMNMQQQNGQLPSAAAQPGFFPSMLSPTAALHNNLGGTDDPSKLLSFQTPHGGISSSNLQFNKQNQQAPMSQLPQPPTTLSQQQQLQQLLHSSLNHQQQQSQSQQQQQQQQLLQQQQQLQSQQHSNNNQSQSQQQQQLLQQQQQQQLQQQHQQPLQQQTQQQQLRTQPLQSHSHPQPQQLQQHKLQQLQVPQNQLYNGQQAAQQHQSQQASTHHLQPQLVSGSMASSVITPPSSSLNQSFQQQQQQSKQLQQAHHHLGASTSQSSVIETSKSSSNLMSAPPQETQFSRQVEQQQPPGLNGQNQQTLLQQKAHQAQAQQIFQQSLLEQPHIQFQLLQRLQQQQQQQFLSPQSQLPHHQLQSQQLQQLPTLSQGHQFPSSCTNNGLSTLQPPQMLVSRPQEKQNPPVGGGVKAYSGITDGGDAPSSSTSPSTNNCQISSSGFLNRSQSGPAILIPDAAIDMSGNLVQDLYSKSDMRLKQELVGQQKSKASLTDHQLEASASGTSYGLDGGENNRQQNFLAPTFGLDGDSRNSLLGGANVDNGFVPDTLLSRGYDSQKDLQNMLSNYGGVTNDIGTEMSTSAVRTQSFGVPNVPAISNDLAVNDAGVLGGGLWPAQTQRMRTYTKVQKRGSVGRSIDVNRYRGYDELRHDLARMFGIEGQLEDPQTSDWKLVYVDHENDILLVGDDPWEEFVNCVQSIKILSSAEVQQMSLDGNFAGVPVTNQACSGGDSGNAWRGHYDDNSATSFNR

Study 1
Target: RING finger protein unkempt homolog, zinc fingers 1-6, GST-SBP tag (UNK, Homo sapiens, UniProt Q9C0B0, residues 30-357)
Method: RNA Bind-n-Seq
Form: RNA
Sample: in vitro
Tested at: not given
Setting: RNA with constant flanks, human-mouse chimeric sites, ends assumed
Relative to: input RNA pool
Direction: higher = stronger binding
Target sequence (chain): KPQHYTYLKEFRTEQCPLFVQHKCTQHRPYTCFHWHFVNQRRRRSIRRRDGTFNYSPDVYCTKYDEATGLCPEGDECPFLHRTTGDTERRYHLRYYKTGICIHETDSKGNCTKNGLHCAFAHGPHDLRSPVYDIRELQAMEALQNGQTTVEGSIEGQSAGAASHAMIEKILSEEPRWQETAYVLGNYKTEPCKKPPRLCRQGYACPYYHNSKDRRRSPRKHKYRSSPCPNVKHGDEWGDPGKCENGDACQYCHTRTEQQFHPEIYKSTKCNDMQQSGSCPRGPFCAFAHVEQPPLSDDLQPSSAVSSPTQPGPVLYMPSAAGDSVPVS
Sequence	bound/input enrichment
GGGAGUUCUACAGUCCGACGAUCAAAGAGAAACUAAAGCAACUAAUAGAGGAAGAGGAUUGCAAAGAGAAUUUCAUAGAGAAACUAGGAUUUUAUUAGCAACAUGAGUUAUAUUCCAGAGCGUCUCAGAAACCCCAGCCAAACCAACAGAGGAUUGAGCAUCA	8.07 ratio
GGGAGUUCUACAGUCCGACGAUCUGACAAGGGCACUGCAGGGCCAUGCCUUUCCUUGACAUACAGAAAAAGCUGGGCAUCAGCCUGGACCGGCACUUUAUGUUCCUAAGCGGUGAACAGCCCUAUAAGAACGCCGCUCGGUGCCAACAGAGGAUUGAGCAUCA	0.0947 ratio
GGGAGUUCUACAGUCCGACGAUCUUGGAAGGACCAGAGCCUAAUCAACUGAAACCAUUAGUUAUACAGGCUAUGCCCACCCUAAUAGAACUAAUGAAAGACCCCAGUGUAGUUGUUCGAGACACAACAGCGUGGACUGUGGGCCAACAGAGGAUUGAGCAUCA	0.399 ratio
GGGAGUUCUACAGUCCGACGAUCGUAGCUGGGACUACAGAAGAAUGCUGAAUUUCAGUCACUUGCUGAUGACUUCUGAUGUCCCAGCAAAUGUUGGCAUUGUUGACUGCUGAGAAGAUACUUCUGAGGACAUACAGCAGUGGUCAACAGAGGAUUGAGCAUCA	0.101 ratio
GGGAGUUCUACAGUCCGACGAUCAGAUUCCCUCUCUUAAAACCUCCUCCGAAGUUGGAGUCUCUUACAGAUGCCUCAUCCCCUGUUAGCGUUUUAGUUUGGACCACACAACCUUGGACAAUUCCCGCCAACCAGGCAAUUUGCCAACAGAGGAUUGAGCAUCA	1.01 ratio
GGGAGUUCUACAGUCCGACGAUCCUGUGUGUGCUGAAUAAAUGGCUUGUAAAGAAGUUUUUCCAAGCUGUACCCAUGUACGUUAUUAUAGUUGCUGCAAAAUGUUCUUCCUGAUAUUGAUGUUUGUUUACAACUGAAGGUCUCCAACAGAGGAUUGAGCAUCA	0.233 ratio
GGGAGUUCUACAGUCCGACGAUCCUUUUUGAAUCAUUCAAGAGUUUUGAAGGUCUCUUUUAUUUUCUGGGGUCCAUUGUUAACUUUAGCCAGGACCCAGAUGUGCACUUUAAAUAUAUUCAGGCGGCUUGCAAGACUGGGCAACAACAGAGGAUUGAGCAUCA	0.459 ratio
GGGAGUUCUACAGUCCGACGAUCACAGUUAUAUUGUUGAGUUUCAUUUUCAUAUAUUCUUGUAGUGUCUGCUUGCCUGUGACUUCUGGUAAAAUAAAAUAUUAAAAUUACAAUAUUUUAGAUUUAACAUUAACAUUUUCUAAACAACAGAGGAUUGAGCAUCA	3.31 ratio
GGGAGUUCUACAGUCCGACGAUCUUCAAAGGCUGUGUUAUCUGUGUCAUUUCAUAAGUAACUCUGGGGGAGGGAAAUUCUGUUCUUUUGUUUAAUUUUCCCCCAGAUAAAGCCAAAGUGUGUGUUGAAGAACUGAGAAAAAAUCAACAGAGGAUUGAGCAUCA	0.315 ratio
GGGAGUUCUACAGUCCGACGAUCCCCUCCCCGGGCCACCCGCCCGCCCAAGCUCCCCGCCAGAGCAAGGUUUUCUUCUUAUUUCAUAGCAAAUAAGAAAAAUGUUCUACGCACAUUUUGUCCUCAGUAAACGAGGGCCUCUGGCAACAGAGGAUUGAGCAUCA	0.843 ratio
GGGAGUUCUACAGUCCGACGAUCCUGUGACCACAAGAUCCUACCUGAGUGUUCAGAUGGGUUGACUCCCUCUCCUUGCCUGAACCCCCCCCCACUGCCCCUUGAGUCCACAGUGUCGGCUGAGAUGUUGCCUCUGCACGGUUCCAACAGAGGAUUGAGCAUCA	0.492 ratio

Study 2
Target: RNA binding protein fox-1 homolog 2, RRM domain, GST-SBP tag (RBFOX2, Homo sapiens, UniProt O43251-10, residues 100-194)
Method: RNA Bind-n-Seq
Form: RNA
Sample: in vitro
Tested at: 365 nM
Setting: natural RNA segment, single round, ends assumed
Relative to: no-protein control
Direction: higher = stronger binding
Residues (chain): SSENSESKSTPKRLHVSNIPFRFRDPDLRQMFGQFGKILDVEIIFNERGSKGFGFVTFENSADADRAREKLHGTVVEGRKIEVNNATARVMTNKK
Sequence	RBNS enrichment (R)
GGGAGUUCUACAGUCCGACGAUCAUAUGGCGACUCCUUUUCCAGAAACUUUUCUUACCUGUUGGUUGUCUUGUUUCCUGGGUUGUUUUUAACUGAAGACAAAAUUGCUCAUUUGCCAGAGGGGACAGAAGCAUUGGAAUUCUCGGGUGCCAA	0.627
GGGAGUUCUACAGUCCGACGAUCCACUAGAUAACUUUCAGUAUCAGUGGUGGUUACUUAUUACUUAAAUCAGAGGAAGGAUUUUAUAAAGAUUAAUAAAUUUAAUUUUACCAAUAAAUAUUCCCAUAAUUUAGUGGAAUUCUCGGGUGCCAA	0.61
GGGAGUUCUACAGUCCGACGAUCGUACGUUUUACGUUUUCCUAUUUACCAGUGGGGUUUUGCUGUAGCCUGUGUAACUCUGCUCUGAGGAACAGGUGUUUCCCAACUGGAUUCGCCUUUUCUAGUCCAGUAGAUGGAAUUCUCGGGUGCCAA	0.378
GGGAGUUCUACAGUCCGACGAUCUUCUGUUAGUCUUAACAGUCUGUUUUCUUUUAAAAGCAUGUAGGGCUUCAUUGCCAUGUUCUGUGGGUGUUUGGCAGGUUACCGAUGGGGAAGAUUCUUGUCACAGAAUCUGGAAUUCUCGGGUGCCAA	0.886
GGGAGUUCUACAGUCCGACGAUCUUAUAGCCAGAGAAAUCACCUUAAUGCAGUCUCUUUAGUUGUCUGCUGAAGCUGUAGUUAUUAUGGGCCACUUACAUGAGGCUGAGAAGUACGUGCCGGAGCUCACACACUGGAAUUCUCGGGUGCCAA	0.415
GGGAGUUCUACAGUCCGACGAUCGGUUUUGAAAACUUUUUUUUAUUUUGUCACAGACCUGUUGUCAUAGUUGAAAUGAUGUUUAUUGUAGAUGGUAUUUGAACUUAUUCUUCUGGAAAUAGUUCAUCAAGUAUUGGAAUUCUCGGGUGCCAA	0.874
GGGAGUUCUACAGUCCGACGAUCAGUGGCCUCAGUAAAUGACAGAAAAACUGACAGGCUCAGUUUUGGAAGACAGCAAACUGGUAAGGUUCAUUCCUGGCUCGGUGCCAGGAACAUUUGUGUUUUGGAGCUCAUGGAAUUCUCGGGUGCCAA	0.286
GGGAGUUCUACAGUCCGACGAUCUCUUCAUUUUUUUGGUAUUUGCAUAAAGUGAACAAUAUCACAAGAAUUAAAUCACUGUGGACCCAUUACCUACCUUUCCUUAUUGUCCGUUCCAUGUUGUGCCAUUUCUGUGGAAUUCUCGGGUGCCAA	1.3
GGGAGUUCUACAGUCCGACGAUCGAUUGAUCUUAACUGAACGAAAACAAAACUGCAUAUGUACUUAAACAGUCUGCAUAUUUGCCAUCCAGCAGAAGACUGAAGGGUGGUCAGAACAGAGGCUUUUUGUUUUUUGGAAUUCUCGGGUGCCAA	0.345
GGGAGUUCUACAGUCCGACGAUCAUUCUGCAUGAAUCCUGUGGCUGUCUUAUUUUAAAUAGCUGCUGCUGUGGGAUUAUAUUUUUUUUCCUUAACAUGCCAAAUAUAACUUUCUGAAAGUGAUGGAAAAUGUUUGGAAUUCUCGGGUGCCAA	1.84
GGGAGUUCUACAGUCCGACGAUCAAUCAUGCAAUUAAAGUUGAUUACUUAUAAAUAUGAACUUUGGAUCACUGUAUAGACUGUUAAAUUUGAUUUCUUAUUACCUAUUGUUAAAUAAACUGUGUGAGACAGACUGGAAUUCUCGGGUGCCAA	0.867
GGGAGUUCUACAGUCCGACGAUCUCUAGUCUAAAACAUUCUCCUAGGACCAGGGAAGCCUGGCUUACAGUGCCAUUUCUGCUGGGCACCACACCUGCCUGAGGGCCUAGCUCACCACAGCACAUCCUCCAGGAUGGAAUUCUCGGGUGCCAA	0.382

Study 3
Target: ABI1, truncated, D143A, DHFR fusion (Arabidopsis thaliana)
Method: DHFR PCA, deep sequencing
Sample: yeast
Setting: methotrexate growth selection, single substitutions
Together with: (+)-ABA 4.8 µM
Relative to: wild-type fitted maximum
Direction: higher = stronger binding
Parent: PYL1, truncated, DHFR fusion (Arabidopsis thaliana); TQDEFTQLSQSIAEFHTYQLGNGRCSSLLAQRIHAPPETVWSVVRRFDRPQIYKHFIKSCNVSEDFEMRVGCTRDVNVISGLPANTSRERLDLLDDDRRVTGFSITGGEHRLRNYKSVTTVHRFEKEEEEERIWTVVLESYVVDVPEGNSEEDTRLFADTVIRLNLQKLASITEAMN
Substitution	relative binding score [%]
L29E	-3.13
T86Y	72.7
A13V	58.7
L82N	7.18
A30H	66.7
R69P	6.47
G107A	42.5
R32S	57.3
Y18C	24.6
L8R	6.95
V137E	7.27
V62P	2
E64A	77.7
T17C	44.6

Study 4
Target: CCNB2, cyclin fold, Cln2 fusion (human)
Method: yeast growth competition, sequencing
Sample: yeast
Setting: weak parent motif
Relative to: not given
Direction: higher = stronger binding
Parent: DTL docking peptide (human); PSSMRKICTYFHR; partner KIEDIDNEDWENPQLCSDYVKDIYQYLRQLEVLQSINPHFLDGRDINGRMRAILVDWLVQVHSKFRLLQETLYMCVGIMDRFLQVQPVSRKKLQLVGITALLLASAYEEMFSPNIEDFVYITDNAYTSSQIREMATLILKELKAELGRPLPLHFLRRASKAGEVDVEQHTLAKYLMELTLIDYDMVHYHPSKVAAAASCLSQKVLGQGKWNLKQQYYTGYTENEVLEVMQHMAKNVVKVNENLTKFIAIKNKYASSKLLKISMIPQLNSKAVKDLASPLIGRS
Substitution	normalised enrichment score
M4A	0.23
T9A	-0.0308
R5A	0.391
F11A	0.314
R13A	0.65
I7A	-0.2

Other studies, line by line
B1: ARF6 790-935 (Arabidopsis thaliana, UniProt Q9ZTX8); chain SENPQSNTFVKVYKSGSFGRSLDISKFSSYHELRSELARMFGLEGQLEDPVRSGWQLVFVDRENDVLLLGDDPWPEFVSSVWCIKILSPQEVQQMGKRGLELLNSAPSSNNVDKLPSNGNCDDFGNRSDPRNLGNGIASVGGSFNY
Molecule	partner	assay	how to read	measurement	result
B1 (ARF6 790-935)	ARF7 1030-1164 (Arabidopsis thaliana, UniProt P93022)	two-hybrid	relative to: out of 2 tests, higher = firmer interaction	positive tests	1

A few entries again (study 4):
Substitution	normalised enrichment score
M4A	0.23
T9A	-0.0308
R5A	0.391
F11A	0.314
R13A	0.65
I7A	-0.2
